Experimental data of several laboratories.
Each line is one published result; not all experiments were run side by side.

Cn1nc(NS(C)(=O)=O)c2c(Cl)ccc(-n3c([C@H](Cc4cc(F)cc(F)c4)NC(=O)Cn4nc(C(F)F)c5c4C(F)(F)[C@@H]4C[C@H]54)nc4nc(OCCC(F)(F)F)ccc4c3=O)c21
patients with laboratory abnormality (refers to: LDL cholesterol grade 2 increase; human; 300 mg once daily, powder in bottle): 13%

Cc1cn([C@H]2O[C@@H](CO[P@@](=O)(N[C@@H](C)C(=O)OC(C)C)Oc3ccccc3)[C@H](O)[C@H]2F)c(=O)[nH]c1=O
patients with TEAE (refers to: Thrombocytosis; human; 50 mg): 0%

CNC(=O)c1cc(Oc2ccc(NC(=O)Nc3cc(C(C)(C)C)nn3-c3ccc4ncccc4c3)c(F)c2)ccn1
patients with related malignant hypertension (phase clinical trial; human patients; oral, dose not given, all doses): 2%

O=C1Nc2cc3[nH]nc(-c4ccncc4)c3cc2CN1Cc1ccccc1
patients with subretinal fluid (CTCAE v4.03; human, relapsed or refractory advanced solid tumours; intravenous, 1.8 mg/kg, pooled schedules): 0%

CN[C@@H](C)C(=O)N[C@H]1CN(S(=O)(=O)c2cccc(S(=O)(=O)N3CC[C@H]4CC[C@@H](C(=O)NC(c5ccccc5)c5ccccc5)N4C(=O)[C@@H](NC(=O)[C@H](C)NC)C3)c2)CC[C@H]2CC[C@@H](C(=O)NC(c3ccccc3)c3ccccc3)N2C1=O
patients with any TRAE (human, advanced solid tumours; intravenous, 4 mg weekly, CTCAE version 4.0): 0%

N[C@@H]1c2ccccc2OC12CCN(c1cnc3c(N4CCCc5ncccc54)n[nH]c3n1)CC2
patients with treatment-related adverse event (refers to: Constipation; human advanced or metastatic solid tumours; oral, 60 mg once daily, phase Ia pooled cohort): 8%

C=CC(=O)Nc1cc(Nc2nccc(Nc3cc(Cl)c(F)cc3C(C)(C)O)n2)c(OC)cc1N1CC[C@@H](N(C)C)C1
patients with anaemia (human patients; oral, 50 mg, treatment-emergent adverse events): 33.3%

C[C@@H]1OC(=O)NN=C1c1ccc(-c2ccc(F)cc2)c(C(F)(F)F)c1
patients with adverse event (phase I trial, refers to: Anaemia worst grade 1; human patients; 5 mg once daily): 0%

CN(C)C(=O)c1cc2cnc(Nc3ccc(N4CCNCC4)cn3)nc2n1C1CCCC1
patients with adverse event (refers to: Leukopenia, AESI; human, HR+/HER2− advanced breast cancer; oral, dose not given, all grades, CTCAE v4.03): 35.5%

C[C@]1(O)C[C@@](N)(c2ccc(-c3nc4n(c3-c3ccccc3)COc3ccncc3-4)cc2)C1
patients with grade ≥3 Rash TEAE (human, advanced or metastatic solid tumours; dose not given, all patients): 17.6%

Cn1cncc1-c1c(F)cncc1NC(=O)c1c(N)nn2cc(F)cnc12
patients grade ≥3 Hyponatremia (human patients; oral, 180 mg once daily, 2 weeks on 1 week off): 0%

COc1ncnn2ccc(-c3cnc4nc(C)n(Cc5nnc([C@@H](C)F)o5)c4c3)c12
patients with nausea (human; oral, dose not given, grade 3): 0%

COc1ccc(-c2c(-c3ccc(C#N)c(F)c3)nc(N3CCC(N)CC3)n(C)c2=O)cc1F
patients with serious TEAE (refers to: hepatic hemorrhage; human patients; oral, 60 mg, dose expansion): 5%

Excerpt of the above:
C[C@]1(O)C[C@@](N)(c2ccc(-c3nc4n(c3-c3ccccc3)COc3ccncc3-4)cc2)C1
patients with grade ≥3 Rash TEAE (human, advanced or metastatic solid tumours; dose not given, all patients): 17.6%

Cn1cncc1-c1c(F)cncc1NC(=O)c1c(N)nn2cc(F)cnc12
patients grade ≥3 Hyponatremia (human patients; oral, 180 mg once daily, 2 weeks on 1 week off): 0%
